# Assay results from different studies.
# Protocols differ between the studies behind these lines. Values joined by “and” are separate records of one study, mostly repeats; a detail may differ. ± marks the error that the study gave.
# Methyl-accepting chemotaxis protein CtaA sensing domain: Methyl-accepting chemotaxis protein CtaA, sensing domain (Pseudomonas fluorescens, UniProt Q3K7T6)
# CXCR4: C-X-C chemokine receptor type 4 (CXCR4, Homo sapiens, UniProt P61073)
# Chain of UniProt P61073 (whole entry, looked up): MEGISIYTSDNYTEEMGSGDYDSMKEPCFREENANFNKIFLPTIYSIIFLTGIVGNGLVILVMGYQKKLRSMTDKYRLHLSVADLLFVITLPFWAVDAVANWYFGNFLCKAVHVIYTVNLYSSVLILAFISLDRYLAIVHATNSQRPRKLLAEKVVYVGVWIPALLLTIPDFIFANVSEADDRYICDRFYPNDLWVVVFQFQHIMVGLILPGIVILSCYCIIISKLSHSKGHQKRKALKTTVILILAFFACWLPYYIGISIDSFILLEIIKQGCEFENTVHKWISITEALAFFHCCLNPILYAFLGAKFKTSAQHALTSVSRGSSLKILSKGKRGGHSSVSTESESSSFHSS
# FAAH: Fatty-acid amide hydrolase 1 (FAAH, Homo sapiens, UniProt O00519)
# Chain of UniProt P04798 (whole entry, looked up): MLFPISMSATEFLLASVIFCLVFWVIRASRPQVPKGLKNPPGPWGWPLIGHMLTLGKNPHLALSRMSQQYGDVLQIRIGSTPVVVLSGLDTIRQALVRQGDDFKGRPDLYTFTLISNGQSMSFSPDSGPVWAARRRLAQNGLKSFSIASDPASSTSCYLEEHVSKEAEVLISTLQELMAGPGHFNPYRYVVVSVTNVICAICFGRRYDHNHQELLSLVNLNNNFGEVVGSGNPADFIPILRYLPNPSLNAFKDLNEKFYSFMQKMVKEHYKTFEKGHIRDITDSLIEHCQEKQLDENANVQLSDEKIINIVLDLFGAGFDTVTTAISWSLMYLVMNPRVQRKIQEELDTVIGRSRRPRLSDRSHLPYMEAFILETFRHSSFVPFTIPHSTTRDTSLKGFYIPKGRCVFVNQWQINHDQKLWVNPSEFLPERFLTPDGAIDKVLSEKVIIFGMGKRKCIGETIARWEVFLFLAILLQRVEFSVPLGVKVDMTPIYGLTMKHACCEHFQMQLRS
# Chain of UniProt O00519 (whole entry, looked up): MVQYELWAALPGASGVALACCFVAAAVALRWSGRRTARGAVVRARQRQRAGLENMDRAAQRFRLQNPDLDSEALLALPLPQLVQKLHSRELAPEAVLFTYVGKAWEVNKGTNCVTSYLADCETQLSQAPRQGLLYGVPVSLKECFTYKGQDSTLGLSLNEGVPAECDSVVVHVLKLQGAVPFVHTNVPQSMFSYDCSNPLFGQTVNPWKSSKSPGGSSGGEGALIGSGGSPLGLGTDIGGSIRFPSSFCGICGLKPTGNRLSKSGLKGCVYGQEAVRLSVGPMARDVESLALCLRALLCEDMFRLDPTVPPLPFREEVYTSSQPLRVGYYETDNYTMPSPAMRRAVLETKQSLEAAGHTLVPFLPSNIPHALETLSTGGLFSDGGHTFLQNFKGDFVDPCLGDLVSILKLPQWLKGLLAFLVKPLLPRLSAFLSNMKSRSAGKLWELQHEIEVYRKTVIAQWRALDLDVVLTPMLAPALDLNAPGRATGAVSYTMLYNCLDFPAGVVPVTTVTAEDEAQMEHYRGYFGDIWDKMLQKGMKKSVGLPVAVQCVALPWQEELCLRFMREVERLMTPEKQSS
# Chain of UniProt P49683 (whole entry, looked up): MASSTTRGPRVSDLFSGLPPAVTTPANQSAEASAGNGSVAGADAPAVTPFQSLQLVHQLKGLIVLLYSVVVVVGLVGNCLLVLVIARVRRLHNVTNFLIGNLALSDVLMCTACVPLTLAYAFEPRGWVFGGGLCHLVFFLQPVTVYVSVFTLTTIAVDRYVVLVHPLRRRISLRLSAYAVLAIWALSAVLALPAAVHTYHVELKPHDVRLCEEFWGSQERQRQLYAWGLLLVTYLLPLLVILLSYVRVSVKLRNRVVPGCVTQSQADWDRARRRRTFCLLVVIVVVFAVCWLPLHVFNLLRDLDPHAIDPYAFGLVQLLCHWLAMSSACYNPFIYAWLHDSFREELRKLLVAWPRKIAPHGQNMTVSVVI
# Chain of UniProt O55242 (whole entry, looked up): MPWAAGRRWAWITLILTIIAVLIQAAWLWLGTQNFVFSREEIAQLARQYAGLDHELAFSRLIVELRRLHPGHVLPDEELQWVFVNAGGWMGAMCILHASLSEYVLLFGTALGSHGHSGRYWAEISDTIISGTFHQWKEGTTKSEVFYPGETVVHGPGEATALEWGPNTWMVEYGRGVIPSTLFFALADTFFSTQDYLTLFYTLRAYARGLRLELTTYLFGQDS
# Chain of UniProt P33527 (whole entry, looked up): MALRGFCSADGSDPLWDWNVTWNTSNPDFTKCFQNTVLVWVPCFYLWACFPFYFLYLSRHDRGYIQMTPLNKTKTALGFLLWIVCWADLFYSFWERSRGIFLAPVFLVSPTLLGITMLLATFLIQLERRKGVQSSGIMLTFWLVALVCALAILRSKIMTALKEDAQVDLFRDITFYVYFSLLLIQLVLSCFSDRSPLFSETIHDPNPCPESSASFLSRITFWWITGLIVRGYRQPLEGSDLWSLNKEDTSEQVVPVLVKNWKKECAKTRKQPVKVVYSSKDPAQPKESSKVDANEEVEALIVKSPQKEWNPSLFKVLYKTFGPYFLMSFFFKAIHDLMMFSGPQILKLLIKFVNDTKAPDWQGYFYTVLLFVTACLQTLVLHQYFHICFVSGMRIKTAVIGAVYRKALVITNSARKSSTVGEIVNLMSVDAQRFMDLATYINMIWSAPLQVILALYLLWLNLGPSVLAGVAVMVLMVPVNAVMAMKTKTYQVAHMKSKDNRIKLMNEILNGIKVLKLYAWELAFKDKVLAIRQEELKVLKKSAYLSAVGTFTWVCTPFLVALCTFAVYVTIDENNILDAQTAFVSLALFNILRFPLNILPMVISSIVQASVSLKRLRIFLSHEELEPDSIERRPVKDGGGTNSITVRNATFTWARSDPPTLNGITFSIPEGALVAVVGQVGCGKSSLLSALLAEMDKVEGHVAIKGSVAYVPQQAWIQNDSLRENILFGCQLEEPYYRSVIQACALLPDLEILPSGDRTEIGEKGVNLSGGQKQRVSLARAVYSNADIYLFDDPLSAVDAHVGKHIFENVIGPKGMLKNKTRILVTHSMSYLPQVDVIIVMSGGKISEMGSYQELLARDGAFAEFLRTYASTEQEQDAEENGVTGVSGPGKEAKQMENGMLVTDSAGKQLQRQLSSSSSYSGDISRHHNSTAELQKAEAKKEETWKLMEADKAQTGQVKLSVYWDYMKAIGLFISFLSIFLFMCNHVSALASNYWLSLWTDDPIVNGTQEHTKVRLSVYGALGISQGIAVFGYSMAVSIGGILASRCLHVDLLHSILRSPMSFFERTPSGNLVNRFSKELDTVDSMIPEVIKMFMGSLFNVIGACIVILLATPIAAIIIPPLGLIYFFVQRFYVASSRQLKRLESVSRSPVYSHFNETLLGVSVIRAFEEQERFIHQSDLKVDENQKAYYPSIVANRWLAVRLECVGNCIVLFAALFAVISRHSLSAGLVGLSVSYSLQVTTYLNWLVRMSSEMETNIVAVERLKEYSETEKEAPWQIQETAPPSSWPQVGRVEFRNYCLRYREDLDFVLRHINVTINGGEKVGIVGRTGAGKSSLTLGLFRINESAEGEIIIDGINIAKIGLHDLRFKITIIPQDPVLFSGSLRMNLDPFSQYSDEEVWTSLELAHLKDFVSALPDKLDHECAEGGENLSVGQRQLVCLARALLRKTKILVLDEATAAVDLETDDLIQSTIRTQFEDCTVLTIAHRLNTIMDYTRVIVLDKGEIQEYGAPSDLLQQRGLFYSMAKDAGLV
# Chain of UniProt Q9UNA4 (whole entry, looked up): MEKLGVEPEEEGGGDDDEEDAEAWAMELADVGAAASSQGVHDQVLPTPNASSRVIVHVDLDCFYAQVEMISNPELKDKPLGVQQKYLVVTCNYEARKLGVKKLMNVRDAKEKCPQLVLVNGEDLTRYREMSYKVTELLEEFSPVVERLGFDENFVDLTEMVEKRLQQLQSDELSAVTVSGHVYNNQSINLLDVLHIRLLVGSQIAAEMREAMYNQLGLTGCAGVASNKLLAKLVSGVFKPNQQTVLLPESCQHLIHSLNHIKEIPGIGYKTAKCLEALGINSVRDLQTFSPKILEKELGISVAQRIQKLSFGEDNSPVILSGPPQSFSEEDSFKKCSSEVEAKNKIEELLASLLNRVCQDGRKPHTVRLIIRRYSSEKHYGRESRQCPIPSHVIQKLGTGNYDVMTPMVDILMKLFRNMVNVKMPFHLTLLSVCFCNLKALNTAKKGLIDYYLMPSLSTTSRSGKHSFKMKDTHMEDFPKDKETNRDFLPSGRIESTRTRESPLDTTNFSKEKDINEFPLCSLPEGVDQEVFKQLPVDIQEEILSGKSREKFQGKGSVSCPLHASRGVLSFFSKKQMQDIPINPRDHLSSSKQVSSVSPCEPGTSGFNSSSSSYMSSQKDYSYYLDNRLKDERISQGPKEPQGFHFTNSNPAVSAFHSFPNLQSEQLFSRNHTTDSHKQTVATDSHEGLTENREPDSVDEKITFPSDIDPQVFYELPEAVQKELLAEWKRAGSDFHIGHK
# Chain of UniProt Q16881 (whole entry, looked up): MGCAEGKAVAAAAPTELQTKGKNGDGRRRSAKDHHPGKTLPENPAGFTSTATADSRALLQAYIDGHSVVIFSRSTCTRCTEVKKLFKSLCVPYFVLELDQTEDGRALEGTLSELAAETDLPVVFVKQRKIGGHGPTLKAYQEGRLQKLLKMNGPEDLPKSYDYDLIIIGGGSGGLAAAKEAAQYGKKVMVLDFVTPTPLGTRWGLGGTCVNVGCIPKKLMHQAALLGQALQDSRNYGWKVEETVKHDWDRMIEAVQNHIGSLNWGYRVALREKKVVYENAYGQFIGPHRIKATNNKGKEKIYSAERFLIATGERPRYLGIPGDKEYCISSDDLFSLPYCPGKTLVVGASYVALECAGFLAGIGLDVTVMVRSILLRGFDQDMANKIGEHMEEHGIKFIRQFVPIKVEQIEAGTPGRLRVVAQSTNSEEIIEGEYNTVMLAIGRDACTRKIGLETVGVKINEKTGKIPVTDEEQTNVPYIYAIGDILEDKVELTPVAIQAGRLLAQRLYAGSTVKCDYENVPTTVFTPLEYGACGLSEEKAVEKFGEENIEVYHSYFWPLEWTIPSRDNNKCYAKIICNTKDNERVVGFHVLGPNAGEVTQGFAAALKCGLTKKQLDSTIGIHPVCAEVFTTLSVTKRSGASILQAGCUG
Structure (SMILES),tested on,test,system,setting,measurement,result
CN1CCC2(CC1)c1ccccc1N(Cc1ccc(C(=O)NO)s1)C2c1cccc(Cl)c1 (stereo not drawn),"Histone deacetylase 8 (Schistosoma mansoni, UniProt A5H660)","enzyme activity, inhibitor, Fluor-de-Lys",,"varied substrate concentration, added: Fluor-de-Lys substrate 50 µM",IC50,370 ± 130 nM
O=c1cc(N2CCOCC2)oc2c(OCc3cccnc3)cccc12,"PIK3CB (Homo sapiens, UniProt P42338)","enzyme activity, inhibitor",,,IC50,2500 nM
Nc1nc(N)c(N=O)c(OCc2ccc(Cl)cc2)n1,"CDK2 (Homo sapiens, UniProt P24941)","enzyme activity, inhibitor",,,IC50,> 10000 nM
CC1(C)S[C@@H]2[C@H](/N=C/N3CCCCCC3)C(=O)N2[C@H]1C(=O)O,"mrcB (Pseudomonas aeruginosa, UniProt G3XD31)","ligand displacement, fluorescence",,cell membranes,IC50,> 39900 nM
Cc1ccccc1NC(=N)Nc1ccccc1C,"Sigmar1 (Mus musculus, UniProt O55242)",,,pH 8,IC50,130 ± 13.8 nM
O=C(Nc1cc(F)c(F)c(F)c1Br)c1cc(S(=O)(=O)N2CCOCC2)c(Cl)cc1Cl,"LPAR4 (Homo sapiens, UniProt Q99677)","Ca2+ mobilization, antagonist",CHO,added: LPA at EC50,IC50,> 100000 nM
CC1=C(COc2ccc(Br)cc2)C(=O)c2ccccc2C1=O,"TXNRD1 (Homo sapiens, UniProt Q16881)","enzyme activity, inhibitor",,"pH 7.4, with preincubation",IC50,800 nM
Cc1cc2nc(NCCCO)n(CC(=O)c3cc(C(C)(C)C)c(O)c(C(C)(C)C)c3)c2cc1C,HEK293 NF-κB luciferase reporter,"NF-κB reporter gene, antagonist",,"24 h, added: TNFα 5 ng/mL",EC50,8590 nM
CC(Sc1nnc(Cc2c[nH]c3ccccc23)o1)C(=O)NCCc1ccccc1 (stereo not drawn),alpha-glucosidase,enzyme activity,,added: p-nitrophenyl glucopyranoside,IC50,232750 ± 170 nM
Cc1ccc(NC2=CC(=O)c3sc(C)nc3C2=O)cc1,HeLa expressing ODD-Luc,"ODD-Luc degradation, inhibitor, cycloheximide chase luciferase",,,IC50,8000 ± 2000 nM
CC(C)[C@H](N)C(=O)O,Methyl-accepting chemotaxis protein CtaA sensing domain,"binding, thermal shift, unfolding equilibrium",,25 °C,Kd,3000 ± 500 nM
COc1ccc(-c2ccc3c(c2)[nH]c2ccncc23)cn1,"MAPT (Homo sapiens, UniProt P10636)","ligand displacement, radioligand",,,IC50,> 10000 nM
COc1ccc2nc(NCc3ccc(CNCCCN4CCCCC4)cc3)nc(NC3CCNCC3)c2c1,CXCR4,"ligand displacement, radioligand",,cell membranes,IC50,66 nM
N[C@@H](CO)C(=O)O,Methyl-accepting chemotaxis protein CtaA sensing domain,"binding, thermal shift, curve fitting",,,Kd,4900 ± 1300 nM
CC[C@H](C)[C@H](NC(=O)OCc1ccccc1)C(=O)N[C@@H](CCC(=O)OC(C)(C)C)C(=O)N[C@@H](C)C(=O)N[C@H](C=O)CC(C)C,HEK293 NF-κB luciferase reporter,"NF-κB reporter gene, antagonist",,"24 h, added: TNFα 5 ng/mL",EC50,10 nM
CC[n+]1c(/C=C/N(C)c2ccccc2)n(-c2ccccc2)c2ccc(-c3nc4ccccc4s3)cc21,HeLa expressing Luc-ODC,"Luc-ODC degradation, inhibitor, cycloheximide chase luciferase",,,IC50,12000 ± 5000 nM
COc1cccc(Cn2cc(COC(=O)NCc3cn(Cc4ccccc4OC)nn3)nn2)c1,FAAH,"enzyme activity, inhibitor, fluorescence",,cell membranes,IC50,39.1 nM
O=C(O)c1cc2ccccc2c(Cc2c(O)c(C(=O)O)cc3ccccc23)c1O,"DNA polymerase iota (Homo sapiens, UniProt Q9UNA4)","enzyme activity, inhibitor",,,IC50,4900 nM
CC(C)C[C@H](NC(=O)[C@H](Cc1ccncc1)NC(=O)[C@H](Cc1ccccc1)N=[N+]=[N-])C(=O)N[C@H](/C=C/S(C)(=O)=O)Cc1ccc(CN)cc1,"Proteasome subunit beta type-6, caspase-like site (PSMB6, Homo sapiens, UniProt P28072)","caspase-like activity, inhibitor",NCI-H929,6 h,IC50,> 30000 nM
O=c1[nH]c2ccccc2n1C1CCN(CCCC(c2ccc(F)cc2)c2ccc(F)cc2)CC1,"ABCC1 (Homo sapiens, UniProt P33527)","efflux, inhibitor, flow cytometry",SupT1 cells overexpressing ABCC1,added: ER-Tracker Green 500 nM,IC50,12900 ± 9100 nM
c1nc2c(NCc3cn(CCCNCCCNC4CCCCC4)nn3)nc(N3CCNCC3)nc2[nH]1,CXCR4,"reporter gene, antagonist",,,IC50,0.167 nM
C#C[C@]1(COP(=O)(O)OP(=O)(O)OP(=O)(O)O)O[C@@H](n2cnc3c(N)nc(F)nc32)C[C@@H]1O,human PBMC tumour model,,"host not given, plasma","oral, 30 mg, single dose, fasted",half-life,118 h
O=C(OCc1ccccc1)c1ccc(O)cc1,FAAH,"enzyme activity, inhibitor, fluorimetric",,"5 min preincubation, recombinant enzyme, added: OMP substrate 50 µM",IC50,140 ± 30 nM
C#Cc1ccc2c(C)c(C)c(=O)oc2c1C,"Cytochrome P450 1A1 (CYP1A1, Homo sapiens, UniProt P04798)","enzyme activity, inhibitor, fluorescence",,"6 min, pH 7.6",IC50,500 nM and 460 nM
C[C@@H](CNCc1ccccc1)N1C[C@H](CCCNC(=N)N)N(CCc2cccc(F)c2)C1=S,"PRLHR (Homo sapiens, UniProt P49683)","receptor activation, antagonist, FLIPR",,,IC50,> 10000 nM
CS(=O)(=O)OC[C@H]1COc2c(cccc2C(N)=O)O1,"PARP1 (Homo sapiens, UniProt P09874)",,,,IC50,> 5000 nM
CC(C)[C@H](NC(=O)[C@@H]1CCCN1C(=O)[C@H](CCCNC(=N)N)NC(=O)[C@H](CS)NC(=O)[C@H](Cc1c[nH]c2ccccc12)NC(=O)[C@H](CCCNC(=N)N)NC(=O)[C@@H](Cc1ccccc1)NC(=O)[C@H](Cc1c[nH]cn1)NC(=O)[C@H](CCC(=O)O)NC(=O)[C@H](CS)NC(=O)[C@H](CS)NC(=O)[C@H](CCCCN)NC(=O)[C@@H]1CC(=O)N[C@@H](CCCNC(=N)N)C(=O)N[C@@H](C)C(=O)N[C@@H](CC(=O)O)C(=O)N[C@H](Cc2ccc(O)cc2)C(=O)N1)C(N)=O [technetium-99m labelled],,,"C57 mice, blood","intravenous, 0.037 MBq, 4 h",tissue uptake,0.2 ± 0.09 %ID/g

# For quick reference, copied from above:
Structure (SMILES),tested on,test,system,setting,measurement,result
Cc1ccc(NC2=CC(=O)c3sc(C)nc3C2=O)cc1,HeLa expressing ODD-Luc,"ODD-Luc degradation, inhibitor, cycloheximide chase luciferase",,,IC50,8000 ± 2000 nM
O=C(Nc1cc(F)c(F)c(F)c1Br)c1cc(S(=O)(=O)N2CCOCC2)c(Cl)cc1Cl,"LPAR4 (Homo sapiens, UniProt Q99677)","Ca2+ mobilization, antagonist",CHO,added: LPA at EC50,IC50,> 100000 nM
